# Experimental data pooled from the literature.
# ± gives the spread as reported.
Structure (SMILES),system,setting,AUC(0-t)
COc1ccc(F)cc1S(=O)(=O)Nc1cnc2c(c1)C(=O)NCCO2,"C57BL/6J mice, plasma","oral, 3 mg/kg",1050 ± 350 ng‧h/mL
CC[C@H](C)C(=O)N1CCC(NC(=O)Nc2ccc(OC(F)(F)F)c(F)c2)CC1,"human, plasma","oral, 24 mg, single dose, healthy volunteers",9030 ng·h/mL
Cc1ccc(/C=C/C(=O)O)cc1-c1cc2c(cc1C)C(C)(C)CCC2(C)C,"rat Sprague-Dawley male, plasma","oral, 100 mg/kg, sesame oil",24700 ng·h/mL
C[C@@H]1CC[C@H]2[C@@H](C)CO[C@@H]3O[C@@]4(C)CC[C@@H]1[C@]32OO4,"male Sprague-Dawley rat, plasma","oral, 100 mg/kg",3010 ng·h/mL
O=P1(NCCCl)NCCCO1 (centres unmarked),"rat, plasma","intravenous, 10 mg/kg CP, added: ketoconazole 10 mg/kg oral 50 min before",566 ± 158 ng·h/mL
CSCC[C@H](NC(=O)CNC(=O)[C@H](CC(=O)O)NC(=O)[C@@H](NC(=O)[C@@H](NC(=O)[C@@H](NC(=O)CNC(=O)[C@H](CCC(N)=O)NC(=O)[C@H](CCSC)NC(=O)[C@H](CC(=O)O)NC(=O)[C@H](C)NC(=O)[C@H](C)NC(=O)[C@@H](NC(=O)[C@H](CO)NC(=O)[C@@H](N)CC(C)C)[C@@H](C)O)C(C)C)C(C)C)[C@@H](C)O)C(=O)N[C@@H](C)C(=O)N[C@@H](CO)C(=O)NCC(=O)N[C@@H](CC(C)C)C(=O)N[C@@H](CC(=O)O)C(=O)N[C@@H](CCCCN)C(=O)N[C@@H](CC(=O)O)C(=O)N[C@@H](Cc1ccc(O)cc1)C(=O)N[C@@H](CC(C)C)C(=O)N[C@@H](CCCCN)C(=O)N1CCC[C@H]1C(=O)N[C@@H](CC(=O)O)C(=O)N[C@@H](CC(=O)O)C(=O)O,"human, serum","intravenous, 4.16 mg/kg, patients, infusion",3700 ng·h/mL
CCOC(=O)[C@@H]1Cc2c(cc([N+](=O)[O-])cc2[N+](=O)[O-])[C@H](O)[C@]12C(=O)Nc1ccc(Br)cc12,rat,"iv, 7.5 mg/kg",21100 ng·h/mL
O=c1cc(-c2ccccc2)oc2c(Br)c(O)c(O)c(O)c12,"C57BL/6 mouse, plasma","oral, 150 mg/kg, single dose",7650 ng·h/mL

# Some of these lines once more:
Structure (SMILES),system,setting,AUC(0-t)
CC[C@H](C)C(=O)N1CCC(NC(=O)Nc2ccc(OC(F)(F)F)c(F)c2)CC1,"human, plasma","oral, 24 mg, single dose, healthy volunteers",9030 ng·h/mL
